Assay results from different studies.
Every numbered part comes from another study and shows a few of its results, in no order. Values joined by “and” are separate records of one study, mostly repeats; a detail may differ.
Sequence of UniProt P48729 (whole entry, looked up): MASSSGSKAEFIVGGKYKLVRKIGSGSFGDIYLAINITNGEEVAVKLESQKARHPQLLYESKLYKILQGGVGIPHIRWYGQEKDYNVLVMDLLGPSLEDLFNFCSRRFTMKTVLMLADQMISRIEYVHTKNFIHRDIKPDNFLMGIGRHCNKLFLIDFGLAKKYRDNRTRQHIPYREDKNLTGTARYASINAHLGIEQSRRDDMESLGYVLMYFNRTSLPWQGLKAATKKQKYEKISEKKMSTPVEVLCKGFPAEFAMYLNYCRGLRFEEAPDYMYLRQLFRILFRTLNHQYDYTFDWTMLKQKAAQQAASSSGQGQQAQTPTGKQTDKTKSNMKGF

Study 1 — host: mouse, S. aureus infection; route: subcutaneous
Compound: CCCCC[C@@H](O)CC(=O)N[C@H]1COC(=O)[C@H](CO)NC(=O)[C@H](Cc2ccccc2)NC(=O)[C@@H](Cc2c[nH]c3ccccc23)NC(=O)[C@@H](C(C)O)NC(=O)[C@H](CC(N)=O)NC(=O)[C@@H](C(C)C)NC(=O)[C@H](CC(C)C)NC(=O)[C@@H](Cc2ccc(O)cc2)N(C)C(=O)CNC(=O)[C@H](CO)NC(=O)[C@@H](CC(N)=O)NC1=O (stereo partly shown)
dose	time	survival [%]
30 mg/kg	day 5	100
10 mg/kg	day 1	60
60 mg/kg	day 0	100
60 mg/kg	day 1	100

Study 2 — action: competitor; method: radioligand binding
Structure (SMILES): N=C(N)NCCCCCCN1CCC23c4c5ccc(O)c4OC2c2nc4ccccc4cc2CC3(O)C1C5 (stereo not shown)
Target: Mu-type opioid receptor (OPRM1, Homo sapiens, UniProt P35372)
Sequence of UniProt P35372 (whole entry, looked up): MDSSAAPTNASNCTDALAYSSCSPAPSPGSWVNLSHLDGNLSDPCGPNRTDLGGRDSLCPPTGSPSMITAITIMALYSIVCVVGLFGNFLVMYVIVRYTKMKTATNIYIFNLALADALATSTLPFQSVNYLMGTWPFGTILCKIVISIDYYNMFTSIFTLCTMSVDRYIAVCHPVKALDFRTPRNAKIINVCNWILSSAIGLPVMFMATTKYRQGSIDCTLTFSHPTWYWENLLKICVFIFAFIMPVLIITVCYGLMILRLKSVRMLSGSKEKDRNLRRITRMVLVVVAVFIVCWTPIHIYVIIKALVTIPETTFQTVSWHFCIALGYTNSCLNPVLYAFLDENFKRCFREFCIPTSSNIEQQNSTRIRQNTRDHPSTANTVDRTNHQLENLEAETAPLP
tested at	specific binding
1 nM	113% and 95.4% and 146%
100 nM	52.4% and 93.1% and 75.4%
10 µM	1.43% and -0.974% and 1.33%
100 pM	146% and 110% and 96.1%

Study 3 — action: degrader
Structure (SMILES): Cn1cc(-c2cccc(CN3CCC4(CC3)COc3c4ccc4c3CN([C@H]3CCC(=O)NC3=O)C4=O)c2)cn1
CRBN/Zinc finger protein Helios: CRBN/Zinc finger protein Helios (Homo sapiens, UniProt Q96SW2+Q9UKS7)
Sequence of UniProt Q9UKS7 (whole entry, looked up): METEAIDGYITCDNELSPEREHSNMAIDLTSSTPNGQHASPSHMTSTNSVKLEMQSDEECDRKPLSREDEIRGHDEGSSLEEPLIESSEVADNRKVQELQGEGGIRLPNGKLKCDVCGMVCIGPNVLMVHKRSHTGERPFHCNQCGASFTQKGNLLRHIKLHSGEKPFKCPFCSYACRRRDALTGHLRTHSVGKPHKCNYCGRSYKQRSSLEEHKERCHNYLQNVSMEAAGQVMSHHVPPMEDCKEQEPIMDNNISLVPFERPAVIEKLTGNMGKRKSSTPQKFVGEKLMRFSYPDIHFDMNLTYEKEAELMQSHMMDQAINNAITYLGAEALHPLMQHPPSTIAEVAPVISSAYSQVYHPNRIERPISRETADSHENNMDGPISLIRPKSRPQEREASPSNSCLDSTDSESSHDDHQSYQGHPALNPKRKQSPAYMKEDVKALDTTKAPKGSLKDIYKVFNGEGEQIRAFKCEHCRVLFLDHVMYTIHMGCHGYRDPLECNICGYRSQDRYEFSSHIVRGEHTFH
Sequence of UniProt Q96SW2 (whole entry, looked up): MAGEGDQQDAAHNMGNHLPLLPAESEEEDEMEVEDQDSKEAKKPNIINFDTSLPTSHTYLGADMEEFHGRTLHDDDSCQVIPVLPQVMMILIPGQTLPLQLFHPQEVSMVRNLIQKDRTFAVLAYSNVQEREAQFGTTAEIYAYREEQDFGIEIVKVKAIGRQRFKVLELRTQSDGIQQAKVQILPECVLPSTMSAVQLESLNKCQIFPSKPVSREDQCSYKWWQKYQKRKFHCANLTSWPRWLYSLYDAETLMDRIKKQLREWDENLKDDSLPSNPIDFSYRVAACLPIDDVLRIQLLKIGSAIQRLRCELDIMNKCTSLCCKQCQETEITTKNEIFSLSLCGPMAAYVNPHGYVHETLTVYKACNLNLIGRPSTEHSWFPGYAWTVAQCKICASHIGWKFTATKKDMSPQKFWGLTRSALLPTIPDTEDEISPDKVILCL
DNA-binding protein Ikaros: DNA-binding protein Ikaros (Homo sapiens, UniProt Q13422)
Sequence of UniProt Q13422 (whole entry, looked up): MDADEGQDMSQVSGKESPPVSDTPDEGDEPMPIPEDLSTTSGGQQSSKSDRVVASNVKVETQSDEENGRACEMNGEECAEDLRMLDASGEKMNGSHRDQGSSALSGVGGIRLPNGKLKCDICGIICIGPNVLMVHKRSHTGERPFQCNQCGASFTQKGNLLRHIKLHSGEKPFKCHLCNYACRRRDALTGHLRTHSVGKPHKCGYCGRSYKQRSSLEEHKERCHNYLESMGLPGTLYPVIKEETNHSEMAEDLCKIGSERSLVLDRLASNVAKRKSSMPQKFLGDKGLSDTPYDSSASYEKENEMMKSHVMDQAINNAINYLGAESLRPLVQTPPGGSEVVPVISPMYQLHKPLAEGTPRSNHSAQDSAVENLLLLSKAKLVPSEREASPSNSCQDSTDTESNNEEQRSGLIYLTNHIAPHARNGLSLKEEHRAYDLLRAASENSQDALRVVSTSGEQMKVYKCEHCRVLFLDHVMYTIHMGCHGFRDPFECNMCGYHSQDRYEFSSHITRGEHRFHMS
SALL4: Sal-like protein 4 (SALL4, Homo sapiens, UniProt Q9UJQ4)
Sequence of UniProt Q9UJQ4 (whole entry, looked up): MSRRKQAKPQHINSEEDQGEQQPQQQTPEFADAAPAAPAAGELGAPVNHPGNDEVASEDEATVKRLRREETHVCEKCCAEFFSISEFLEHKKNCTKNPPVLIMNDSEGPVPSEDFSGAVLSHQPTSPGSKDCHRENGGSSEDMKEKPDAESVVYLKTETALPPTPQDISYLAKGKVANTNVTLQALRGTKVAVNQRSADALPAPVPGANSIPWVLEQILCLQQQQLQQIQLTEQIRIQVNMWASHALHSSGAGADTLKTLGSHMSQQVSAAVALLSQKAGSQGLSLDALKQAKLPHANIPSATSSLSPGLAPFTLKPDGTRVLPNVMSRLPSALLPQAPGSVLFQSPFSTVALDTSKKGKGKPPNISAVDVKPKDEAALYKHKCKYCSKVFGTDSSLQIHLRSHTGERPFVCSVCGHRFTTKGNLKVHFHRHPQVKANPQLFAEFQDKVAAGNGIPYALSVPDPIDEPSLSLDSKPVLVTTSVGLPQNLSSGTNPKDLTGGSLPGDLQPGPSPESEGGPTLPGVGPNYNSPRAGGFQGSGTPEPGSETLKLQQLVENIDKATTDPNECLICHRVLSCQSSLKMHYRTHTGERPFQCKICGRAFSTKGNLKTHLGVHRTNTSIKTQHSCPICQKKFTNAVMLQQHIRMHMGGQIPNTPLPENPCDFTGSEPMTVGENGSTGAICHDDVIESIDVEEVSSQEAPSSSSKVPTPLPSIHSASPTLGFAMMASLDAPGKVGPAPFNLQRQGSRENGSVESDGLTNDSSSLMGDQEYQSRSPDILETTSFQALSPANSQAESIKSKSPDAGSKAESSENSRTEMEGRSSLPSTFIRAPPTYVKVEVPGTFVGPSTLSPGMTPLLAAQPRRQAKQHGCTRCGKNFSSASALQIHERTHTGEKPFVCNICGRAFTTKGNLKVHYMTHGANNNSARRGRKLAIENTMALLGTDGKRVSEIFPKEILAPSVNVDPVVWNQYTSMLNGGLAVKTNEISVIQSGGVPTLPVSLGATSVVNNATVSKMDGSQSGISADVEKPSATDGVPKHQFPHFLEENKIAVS
target	method	cell line	tested at	time	remaining protein
CSNK1A1 (Homo sapiens, UniProt P48729)	HiBiT	HEK293	1111.11 nM	–	99.6% and 93.7%
CRBN/Zinc finger protein Helios	flow cytometry	primary human regulatory T cells	0.05081 nM	6 h	98.7% and 102%
CRBN/Zinc finger protein Helios	flow cytometry	primary human regulatory T cells	0.05081 nM	3 h	96.6% and 104%
CRBN/Zinc finger protein Helios	flow cytometry	primary human regulatory T cells	37.04 nM	6 h	11% and 17.7%
DNA-binding protein Ikaros	HiBiT	HEK293	3333.33 nM	–	91.1% and 90.3%
CRBN/Zinc finger protein Helios	flow cytometry	Jurkat	4.1 nM	–	77% and 78.9%
CRBN/Zinc finger protein Helios	flow cytometry	primary human regulatory T cells	0.1524 nM	3 h	102% and 98.1%
SALL4	HiBiT	HEK293	1.524 nM	–	86.3% and 80.5%
SALL4	HiBiT	HEK293	10000 nM	–	65% and 78%
CRBN/Zinc finger protein Helios	flow cytometry	primary human regulatory T cells	12.35 nM	6 h	23.6% and 33.1%
CRBN/Zinc finger protein Helios	flow cytometry	primary human regulatory T cells	333.3 nM	6 h	9.56% and 5.63%
DNA-binding protein Ikaros	HiBiT	HEK293	1.524 nM	–	95.8% and 96.2%
CRBN/Zinc finger protein Helios	flow cytometry	Jurkat	111 nM	–	39.1% and 45.3%
CRBN/Zinc finger protein Helios	flow cytometry	primary human regulatory T cells	1000 nM	3 h	29.7% and 20%

Study 4 — organism: Arabidopsis thaliana; strain: Col-0
Compound: C#CCN1C(=O)C(O)(C(=O)O)Oc2cc(F)ccc21 (stereo not shown)
tested at	setting	hypocotyl length
25 µg/mL	seed germination, repetition mean	1.43 cm
25 µg/mL	seed germination, single repetition	1.38 cm and 1.44 cm and 1.39 cm and 1.51 cm and 1.4 cm
6.25 µg/mL	seed germination, single repetition	1.89 cm and 1.93 cm and 1.9 cm and 1.98 cm and 1.95 cm
50 µg/mL	seed germination, repetition mean	0.919 cm
6.25 µg/mL	seed germination, repetition mean	1.95 cm
50 µg/mL	seed germination, single repetition	0.93 cm and 0.89 cm and 0.95 cm and 0.92 cm and 0.86 cm
100 µg/mL	seed germination, repetition mean	0.101 cm
3.125 µg/mL	seed germination, repetition mean	2.17 cm
12.5 µg/mL	seed germination, single repetition	1.71 cm and 1.66 cm and 1.68 cm and 1.62 cm and 1.82 cm

Single results of other studies
Compound	target or system	effect on	method	measured	tested at	endpoint	result
Cc1ccc(O)c(C)c1-c1cnc2[nH]c(-c3cnc(N4CCC(CN5CCN(c6ccc(N7CCC(=O)NC7=O)cc6F)CC5)CC4)nc3)cc2c1C#N	HCC1569	–	in-cell western	CDK1 phospho-Thr14	333.33 nM	pCDK1 (Thr14) level	65.9% and 58%
O=C1CC[C@H](Nc2ccc(N3CCNCC3)c(F)c2)C(=O)N1	Protein cereblon (CRBN, Homo sapiens, UniProt Q96SW2)	binding	–	–	123.46 nM	inhibition	41.6% and 31.2%
Cc1ccc(O)c(C)c1-c1cnc2[nH]c(-c3cnc(N4CCC(CN5CCN(c6ccc7c8c(cccc68)C(=O)N7C6CCC(=O)NC6=O)CC5)CC4)nc3)cc2c1C#N (racemic)	HCC1569	–	in-cell western	CDK1 phospho-Thr14	333.33 nM	pCDK1 (Thr14) level	18.8% and 9.91%

Repeated from above (study 3):
target	method	cell line	tested at	time	remaining protein
CRBN/Zinc finger protein Helios	flow cytometry	primary human regulatory T cells	37.04 nM	6 h	11% and 17.7%
DNA-binding protein Ikaros	HiBiT	HEK293	3333.33 nM	–	91.1% and 90.3%
